Published values gathered from unrelated publications.
Lines come from different studies, so protocols differ. Values joined by “and” are separate records of one study, mostly repeats; a detail may differ. ± marks the error that the study gave.

The EC50 of `CC(C)C[C@H](NC(=O)[C@H](CO)NC(=O)[C@H](Cc1ccc(O)cc1)NC(=O)CNC(=O)[C@H](CCCNC(=N)N)NC(=O)[C@H](Cc1ccc(O)cc1)NC(=O)[C@@H](N)CC(N)=O)C(=O)NCC(=O)N[C@@H](CC(N)=O)C(N)=O` is reported as > 10000 nM (2D12.1 T cell hybridoma; T cell activation, agonist, item: IL-2; 24 h, NOD mouse spleen cells).
`C=CC(=O)Nc1cc(-c2nn(C3CCN(CCNC(=O)[C@H](C)CCC45CC6CC(CC(C6)C4)C5)CC3)c3ncnc(N)c23)ccc1Oc1ccccc1` has an EC50 of 900 nM (PC9/GR4; cell growth or viability, ATP luminescence; 72 h).
`FC(F)(F)c1ccnc(-c2cc(C(F)(F)F)ccn2)c1.FC(F)(F)c1ccnc(-c2cc(C(F)(F)F)ccn2)c1.[Cl-].[Cl-].[Ru+2].c1csc(-c2ccc(-c3ccc(-c4nc5c6cccnc6c6ncccc6c5[nH]4)s3)s2)c1` has an EC50 of 1100 nM and ~1000 nM (SK-MEL-28; cell viability; hypoxia 1% O2, with: green light 523 nm).
For `[Ru+2].c1ccc(-c2ccc3c(n2)c2ncccc2c2nc4cc5ccccc5cc4nc32)nc1.c1ccc(-c2ccc3c(n2)c2ncccc2c2nc4cc5ccccc5cc4nc32)nc1`, the EC50 was 700 ± 200 nM (M2 murine macrophages; cell viability, MTT; 1 h, blue light 56 J/cm2).
With `O=C(N[C@@H](Cc1coc2ccccc12)B(O)O)[C@@H]1C[C@H]2CC[C@@H]1O2` the EC50 was 420 nM (MM1.S; caspase 3/7 activity; 72 h).
With `Cc1ccc(CC(=O)c2c(O)c(O)cc3c(O)c(-c4c(C)cc5c(C(=O)Cc6ccc(C)cc6)c(O)c(O)cc5c4O)c(C)cc23)cc1` the EC50 was 820 nM (H460; ATP-lite viability; 72 h).
`CC(=O)O[C@H]1OC[C@@H]2C=C([C@@]3(C)CCCC(C)(C)C3)CC[C@H]12` gave an EC50 of 1000 to 4000 nM (human T-lymphocyte; cell growth or viability, MTT; 48 h).
The EC50 of `CC(=O)OC[C@H]1O[C@@H]([Se][Se][C@@H]2O[C@H](COC(C)=O)[C@@H](OC(C)=O)[C@H](OC(C)=O)[C@H]2OC(C)=O)[C@H](OC(C)=O)[C@@H](OC(C)=O)[C@@H]1OC(C)=O` is reported as 4900 ± 450 nM (J774 mouse macrophages; viability; 24 h).
`CC(C)C[C@H](NC(=O)CN)C(=O)N[C@@H](CC(=O)O)C(=O)N[C@@H](CC(N)=O)C(=O)N[C@@H](Cc1ccc(O)cc1)C(=O)N[C@@H](CCCNC(=N)N)C(=O)NCC(=O)N[C@@H](Cc1ccc(O)cc1)C(=O)N[C@@H](CO)C(=O)N[C@@H](CC(C)C)C(=O)NCC(=O)N[C@@H](CC(N)=O)C(N)=O` has an EC50 of > 10000 nM (2D12.1 T cell hybridoma; T cell activation, agonist, item: IL-2; 24 h, NOD mouse spleen cells).
With `Cc1ccc2c(n1)c1nc(C)ccc1c1nc3cc4ccccc4cc3nc21.[Ru+2].c1ccc(-c2cccc(-c3ccccn3)n2)nc1.c1ccncc1` the EC50 was 550 ± 100 nM (M2 murine macrophages; cell viability, MTT; 1 h, blue light 56 J/cm2).
For `FC(F)(F)c1ccnc(-c2cc(C(F)(F)F)ccn2)c1.FC(F)(F)c1ccnc(-c2cc(C(F)(F)F)ccn2)c1.[Cl-].[Cl-].[Ru+2].c1csc(-c2ccc(-c3ccc(-c4ccc(-c5nc6c7cccnc7c7ncccc7c6[nH]5)s4)s3)s2)c1`, the EC50 was < 10000 nM (SK-MEL-28; cell viability, resazurin; hypoxia 1% O2, with: red light).
`CC(C)C[C@H](NC(=O)[C@H](CO)NC(=O)[C@H](Cc1ccc(O)cc1)NC(=O)CNC(=O)[C@H](CCCNC(=N)N)NC(=O)[C@H](Cc1ccc(O)cc1)NC(=O)[C@H](CC(N)=O)NC(=O)[C@@H](N)CC(=O)O)C(=O)NCC(=O)N[C@@H](CC(N)=O)C(N)=O` has an EC50 of > 10000 nM (2D12.1 T cell hybridoma; T cell activation, agonist, item: IL-2; 24 h, NOD mouse spleen cells).
For `N=C(N)NCCC[C@H](N)C(=O)N1CCC[C@H]1C(=O)N[C@@H](CCCCN)C(=O)N1CCC[C@H]1C(=O)N[C@@H](CCC(N)=O)C(=O)N[C@@H](CCC(N)=O)C(=O)N[C@@H](Cc1ccccc1)C(=O)N[C@@H](Cc1ccccc1)C(=O)NCC(=O)O`, the EC50 was 43300 nM (LAD2 human mast cells; degranulation, activator, item: β-hexosaminidase; 30 min, 37 °C).

Some of these lines once more:
For `FC(F)(F)c1ccnc(-c2cc(C(F)(F)F)ccn2)c1.FC(F)(F)c1ccnc(-c2cc(C(F)(F)F)ccn2)c1.[Cl-].[Cl-].[Ru+2].c1csc(-c2ccc(-c3ccc(-c4ccc(-c5nc6c7cccnc7c7ncccc7c6[nH]5)s4)s3)s2)c1`, the EC50 was < 10000 nM (SK-MEL-28; cell viability, resazurin; hypoxia 1% O2, with: red light).
`CC(C)C[C@H](NC(=O)[C@H](CO)NC(=O)[C@H](Cc1ccc(O)cc1)NC(=O)CNC(=O)[C@H](CCCNC(=N)N)NC(=O)[C@H](Cc1ccc(O)cc1)NC(=O)[C@H](CC(N)=O)NC(=O)[C@@H](N)CC(=O)O)C(=O)NCC(=O)N[C@@H](CC(N)=O)C(N)=O` has an EC50 of > 10000 nM (2D12.1 T cell hybridoma; T cell activation, agonist, item: IL-2; 24 h, NOD mouse spleen cells).
